Measured values gathered from unrelated publications.
Lines come from different studies, so protocols differ. ± gives the spread as reported.

COC1OC(C)C(OC2OC(C)C(OS(=O)(=O)O)C(OC3OC(C)C(OC4OC(C)C(OS(=O)(=O)O)C(OC5OC(C)C(OC6OC(C)C(OS(=O)(=O)O)C(OC7OC(C)C(OC8OC(C)C(OS(=O)(=O)O)C(OS(=O)(=O)O)C8O)C(OS(=O)(=O)O)C7O)C6O)C(OS(=O)(=O)O)C5O)C4O)C(OS(=O)(=O)O)C3O)C2O)C(OS(=O)(=O)O)C1O (stereo not drawn)  prothrombin time (human plasma; 128 µg/mL): 14.2 ± 0.4 s
CN1CCCNC(=O)c2cccc(c2)C(=O)NCCCN(C)CCCNc2cccc3c2C(=O)c2cccc(c2C3=O)NCCC1  log2 fold change (SAS; RNA-Seq, item: CCDC14 mRNA; 1 µM, 6 h; baseline: untreated cells): -0.706
CC(C)(C)NCC(SS(=O)(=O)O)c1ccccc1 (stereo not drawn)  liver weight (Schistosoma mansoni-infected mice; 200 mg/kg single, day 42, perfusion day 56): 4.05 g
C[n+]1ccc(/C=N/NC(=O)c2cc(C(=O)N/N=C/c3cc[n+](C)c4ccccc34)ncn2)c2ccccc21  ΔTm (hp2 hairpin duplex DNA; FRET melting; 1 µM): 0.7 ± 0.1 °C
COC1OC(C)C(OC2OC(C)C(O)C(OS(=O)(=O)O)C2OS(=O)(=O)O)C(OS(=O)(=O)O)C1OS(=O)(=O)O (stereo not drawn)  prothrombin time prolongation (human plasma; 128 µg/mL; baseline: control): 1.02 fold
CC[n+]1cccc2cc(/C=N/NC(=O)c3ccc4ccc(C(=O)N/N=C/c5ccc6c(ccc[n+]6CC)c5)nc4n3)ccc21  ΔTm (hp2 hairpin duplex DNA; FRET melting; 1 µM): 1.4 ± 0.5 °C
CCN(CC)CC(=O)Nc1cccc(-n2cc(-c3ccc4ccc(-c5cn(-c6cccc(NC(=O)CN(CC)CC)c6)nn5)cc4c3)nn2)c1  fold regulation (RCC4; PCR angiogenesis array, item: FN1; 5 x IC50, 2 h, normoxia; baseline: untreated): 1.14
COc1nc(Nc2nc(O)c3ccccc3n2)nc2ccc(C)cc12  Emax (Mus musculus; gene silencing, high-content imaging; LDR reporter GFP cells; 30 h, retest run 2): 56%
CNS(=O)(=O)Nc1nccc(Cc2c(C)c3ccc(Oc4ncccc4F)cc3oc2=O)c1F  IC50 (CAMA-1; cell viability; 7 days): > 1 µM
O=C(N/N=C/c1ccc(C[n+]2ccccc2)cc1)C(=O)N/N=C/c1ccc(C[n+]2ccccc2)cc1  ΔTm (MYC parallel G4 DNA; FRET melting; 1 µM, DNA 0.2 µM): 2.9 ± 0.3 °C
Nc1ncc(-c2cc(-c3cnn(CC(F)(F)F)c3)ncc2F)nc1C(=O)NC1CNCC(F)C1 (stereo not drawn)  remaining binding (CDK2; KINOMEscan; 1 µM; baseline: DMSO control): 100%
C[n+]1cc(/C=N/NC(=O)c2ccc3ccc4ccc(C(=O)N/N=C/c5cc6ccccc6[n+](C)c5)nc4c3n2)cc2ccccc21  ΔTm (hp2 hairpin duplex DNA; FRET melting; 1 µM): 1.7 ± 0.7 °C
O=[N+]([O-])C(=C\Nc1ccccc1O)/C=N/c1ccccc1O  AC50 (Mus musculus; gene silencing, high-content imaging; LDR reporter GFP cells; retest run 1): 10 µM
C[n+]1ccc(/C=N/NC(=O)c2cncc(C(=O)N/N=C/c3cc[n+](C)cc3)n2)cc1  ΔTm (hp2 hairpin duplex DNA; FRET melting; 1 µM, added: ds26 10 µM): 0 ± 0.1 °C
N=C(S)N/N=C/c1ncc(C(F)(F)F)cc1Cl  EC50 (Mus musculus; gene silencing, high-content imaging; LDR reporter GFP cells; retest, mean of two runs): 12.6 µM
CC(C)(C)c1cc(-c2ccc3cccnc3n2)nc(-c2ccc3cccnc3n2)c1.COc1ccncc1.[Cl-].[Cl-].[Ru+2].c1ccc2cc3nc4c5cccnc5c5ncccc5c4nc3cc2c1  phototoxicity index (A-375; resazurin; added: light 633 nm, 100 J/cm2; baseline: dark EC50 over light EC50): 41
COCC/N=C(\S)N/N=C(\C)c1ccccc1O  Emax (Mus musculus; gene silencing, high-content imaging; LDR reporter GFP cells; 30 h, retest run 2): 44%
CC[n+]1cccc2cc(/C=N/NC(=O)c3cc(C(=O)N/N=C/c4ccc5c(ccc[n+]5CC)c4)ncn3)ccc21  ΔTm (hp2 hairpin duplex DNA; FRET melting; 1 µM): 1.6 ± 0.5 °C
Cc1ncsc1-c1ccc(C(C)NC(=O)C2CC(O)CN2C(=O)C(NC(=O)CCCCCCCCCCN2CCCC(Nc3ncc(Cl)c(Nc4ccccc4S(=O)(=O)C(C)C)n3)C2)C(C)(C)C)cc1 (stereo not drawn)  log2 fold change (22Rv1; RNA-seq, item: MYC mRNA; concentration not given; baseline: DMSO): -1.25
C=CC(=O)N1[C@@H](c2ccc3c(c2)OCO3)c2[nH]c3ccccc3c2C[C@H]1C(=O)N1CCN(C)CC1  relative co-enrichment (human cyclin E1 wild type-3xFLAG:CDK2; co-IP with TMT proteomics, item: TK1; concentration not given, P04183; baseline: wild type DMSO): 101%
CCc1nnc(NC(=O)c2cccc(C(=O)Nc3nnc(CC)s3)n2)s1  Emax (Mus musculus; gene silencing, high-content imaging; LDR reporter GFP cells; 30 h, retest run 1): 41%
COC1OC(C)C(OC2OC(C)C(O)C(OC3OC(C)C(OC4OC(C)C(O)C(OS(=O)(=O)O)C4OS(=O)(=O)O)C(OS(=O)(=O)O)C3OS(=O)(=O)O)C2OS(=O)(=O)O)C(OS(=O)(=O)O)C1OS(=O)(=O)O (stereo not drawn)  prothrombin time prolongation (human plasma; 128 µg/mL; baseline: control): 1.03 fold
O=C(N/N=C/c1cc[n+](Cc2ccccc2)c2ccccc12)C(=O)N/N=C/c1cc[n+](Cc2ccccc2)c2ccccc12  ΔTm (hp2 hairpin duplex DNA; FRET melting; 1 µM): 1.5 ± 0.3 °C
COc1ccc2c(C)nc(Nc3nc(O)cc(-c4ccccc4)n3)nc2c1  AC50 (Mus musculus; gene silencing, high-content imaging; LDR reporter GFP cells; retest run 2): 3.98 µM
C[n+]1ccc(/C=N/NC(=O)c2ccc3ccc(C(=O)N/N=C/c4cc[n+](C)c5ccccc45)nc3n2)c2ccccc21  ΔTm (MYC parallel G4 DNA; FRET melting; 1 µM, DNA 0.2 µM, added: duplex DNA competitor 10 µM): 15.3 ± 0.3 °C
Cc1ccc(C(C)C)c(OCc2ccc(C(=O)N/N=C/c3cccc(O)c3O)cc2)c1  Emax (Mus musculus; gene silencing, high-content imaging; LDR reporter GFP cells; 30 h, retest, mean of two runs): 40%
C=CC(=O)Nc1cccc(Cn2ncc3cnc(Nc4cnn(CCOC)c4)nc32)c1  percent of control (DAPK1 human; binding, KINOMEscan; 100 nM; lower = stronger binding): 94%
CC1=C/C(=N\N=C(/S)Nc2cccnc2)CC(C)(C)C1  Emax (Mus musculus; gene silencing, high-content imaging; LDR reporter GFP cells; 30 h, confirmation, mean of two runs): 95%
COC1OC(C)C(O)C(OC2OC(C)C(O)C(OC3OC(C)C(O)C(OC4OC(C)C(O)C(OC5OC(C)C(O)C(OC6OC(C)C(O)C(OC7OC(C)C(O)C(OC8OC(C)C(O)C(OC9OC(C)C(O)C(OC%10OC(C)C(O)C(OC%11OC(C)C(O)C(OS(=O)(=O)O)C%11OS(=O)(=O)O)C%10OS(=O)(=O)O)C9OS(=O)(=O)O)C8OS(=O)(=O)O)C7OS(=O)(=O)O)C6OS(=O)(=O)O)C5OS(=O)(=O)O)C4OS(=O)(=O)O)C3OS(=O)(=O)O)C2OS(=O)(=O)O)C1OS(=O)(=O)O (stereo not drawn)  prothrombin time (human plasma; 128 µg/mL): 14.6 ± 0.6 s
COC1CN([C@H]2CC[C@H]([C@@]3(C)Oc4c(Cl)cc(C(=O)NCc5c(SC)cc(C)[nH]c5=O)c(C)c4O3)CC2)C1  log2 fold change (RNA-seq, item: SMPD3; human, whole blood; dose not given, 24 h; baseline: pretreatment baseline): 1.39
